# Published values gathered from unrelated publications.
# Lines come from different studies, so protocols differ. Values joined by “and” are separate records of one study, mostly repeats; a detail may differ.
# Target: NUAK family SNF1-like kinase 1 (NUAK1, Homo sapiens, UniProt O60285)
SMILES,test,system,setting,scale,measurement,value
CNC1C[S+]2CC[S+]3CC[S+](C1)[Ru-4]321([N]=C=S)[n]2c3ccc(OC)cc3c3c4c(c5cc(F)c[n+]1c5c32)C(=O)NC4=O (stereo not shown),KinomeScan,,0.1 µM,baseline: untreated,remaining binding,85%
COCC12C(=O)NC3C4(C(OC)CC1O)C1CC5(O)C(OC)C(O)C(OC(C)=O)(C1C5OC(=O)c1ccccc1)C3(O)C(OC)C24 (stereo not shown),"kinase activity, inhibitor, ProQinase kinase profiling",,25 µM,baseline: control,remaining activity,93% and 85%
C=CC(=O)N1Cc2nc(-c3cc(-c4cc(Cl)cnc4Cl)c(F)cc3F)n(-c3ccncn3)c2C1,"cell-free assay, inhibitor",,1 µM,,inhibition,1.8%
CNC(=O)C[C@H](Cc1ccc(C#N)cc1)NC(=O)c1cc(-c2ccc(CN[C@H](C)c3ccc(C)cc3)o2)ccc1Cl,"enzyme activity, inhibitor",,1 µM,,activity vs control,87%
CCn1cc(C(=O)O)c(=O)c2c(N)c(F)c(NC3CCCCC3)cc21,kinase activity,,"0.1 µM, added: ATP at Km",,inhibition,-4.3%
Cc1cccc(O[C@H]2CCC[C@@H](C(C)CNCc3ccncc3)C2)c1 (relative stereo),"kinase activity, kinome panel screening",,10 µM,,inhibition,3%
Nc1ncc2c(n1)-c1c([nH]c3ccc(C4=CCOCC4)cc13)CCC2,"binding, competition with immobilised ligand",,1 µM,,remaining binding,100%
C=CC(=O)Nc1cc(-c2nn(C3CCN(CCNC(=O)[C@H](C)CCC45CC6CC(CC(C6)C4)C5)CC3)c3ncnc(N)c23)ccc1Oc1ccccc1,"inhibitor, KiNativ profiling",biochemical,2 µM,,inhibition,8.2%
COc1c(Cl)cccc1Nc1c(-c2ccncc2C#C[C@@]2(C)CCCN2C(=O)/C=C/CN(C)C)[nH]c2c1C(=O)NCC2,"cell-free assay, competition with immobilised ligand",,3 µM,,remaining binding,100%
C=CC(=O)Nc1cccc(-c2cnc3[nH]cc(C(=O)NC(C)(C)C)c3n2)c1,kinase activity,,0.1 µM,,inhibition,92%
Cc1cnc2nc1Nc1cccc(c1)COC/C=C/COCc1cc(ccc1OCCN1CCOCC1)N2,,,"concentration not given, gene name ARK5",,percent of control,61%
COc1cc(Nc2nccc(-c3cnn4nc(OC)ccc34)n2)cc(C(F)(F)F)c1,"binding, competition with immobilised ligand",,1 µM,,remaining binding,100%
COc1ccc(NC(=O)Nc2ccc3c(c2)C(=O)N(C(C)CO)CC(C)C(CN(C)Cc2ccc4c(c2)OCO4)O3)cc1 (stereo not shown),"kinase activity, KinaseProfiler",,"0.03 µM, species human",baseline: control,remaining activity,108%
CC(C)=CC1OC(C)(C)C2C=C3C(=O)C(Cl)=CC(O)C3C3C(O)C4OC4C(=O)C132 (stereo not shown),"cell-free assay, competition with immobilised ligand",,10 µM,,remaining binding,96%
NC(=O)C[C@H]1CCc2sc3ncnc(O[C@H]4CC[C@H](N5CCOCC5)CC4)c3c21,"enzyme activity, inhibitor",,10 µM,,inhibition,7%
CNC(=O)C1CCN(c2cc(C)c(F)cc2NC(=O)c2ccc(-c3cc(O)ccc3C)c(C)c2)CC1,"binding, competition with immobilised ligand",,1 µM,,remaining binding,100%

# Repeated from above:
SMILES,test,system,setting,scale,measurement,value
C=CC(=O)N1Cc2nc(-c3cc(-c4cc(Cl)cnc4Cl)c(F)cc3F)n(-c3ccncn3)c2C1,"cell-free assay, inhibitor",,1 µM,,inhibition,1.8%
CNC(=O)C[C@H](Cc1ccc(C#N)cc1)NC(=O)c1cc(-c2ccc(CN[C@H](C)c3ccc(C)cc3)o2)ccc1Cl,"enzyme activity, inhibitor",,1 µM,,activity vs control,87%
